Assay results of several laboratories.
Parts stem from different laboratories: compare values within a part only. Changes are numbered by the printed parent chain.

Sample 1
Target: RNA binding protein fox-1 homolog 2, RRM domain, GST-SBP tag (RBFOX2, Homo sapiens, UniProt O43251-10, residues 100-194)
Technique: RNA Bind-n-Seq
Form: RNA
Sample: in vitro
Concentration: 365 nM
Setting: natural RNA segment, single round, ends assumed
Reference: no-protein control
Reading: higher = stronger binding
Endpoint: RBNS enrichment (R)
Constant ends, left off below: GGGAGUUCUACAGUCCGACGAUC … UGGAAUUCUCGGGUGCCAA
Residues (chain): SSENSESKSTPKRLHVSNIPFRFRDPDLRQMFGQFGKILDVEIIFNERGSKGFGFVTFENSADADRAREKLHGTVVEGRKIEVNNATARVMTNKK
CUUAGGAAGGAUGCCUUGUGCCUAUGGGCCCUUUGGUGACAUGUGGGGCUCUGGAUCCUUGGGUGUCCUCACUGUGGCCACUCUGCCUGCUGAGGACAGCCAGAAGCCCA: 0.525
CCACCUCCAGCUCUGCUGGCAAUCUCCCUCCCCCAAGGCAAACUGGCCAGCAGGAGUGCUUCACAGCAGUCCUGCUUAGUACCGUUGAAGAGACUCAGUUUACCUUAGUG: 0.254
AGUGCAUGGAGACCCCUUUAGGCUCAGGGCUGCUCGAGCUCUGACUCUAACCCUGCUCCUUCCUAGCACAGCUCUGCACAUCCAUCUCUCUCUCUUGCUGAAUGCACAUA: 1.12
CCAAUAACUAAUUUUAAAUACACAUUGUCCUCUCGAUUUUUGGACCAAACAGACGCUCACAGUGGAGGCUUAUCAAGGGUUGCAUUGGGGAAGAAGCCUCUCCCUCUCUG: 0.587
UAUGAGUGACAGAGCUUUCUGUGUAUAAUUUGUCUAAAUAAUUUGUCUAAUAAAAAUGUUUUCUAAACUUGCUCUCAUACUAUUGAAGUCUUAACUGUAAGAUUUGAAAA: 1.06
GAAAUGUUAAGUGGAAAAAUAUACAGUUUGGUAAAAUAAACUAGAUUCUACAUUUAUUUGUGGGUUUUUUUCCCCUCCUUUCUUUCCACAGCACUUUUGAUAUCAAGCAA: 0.385
CAACAUGUAAAUAAUCUUUUAAGAGCCAGUUCUGAUGCUUUACAUUAUUGCUACUUGAUUUUGUUAUGCAAGUUAGAUUUCAGAAGAAUAGAUUUUAAAACACUUAACCA: 0.422
UCUGCCUGAGACCCCAAGGUCCUCUCCUCCCUAGAGGGGAGGUGGAGCAGCAGUUGACUCCUGGUUCCCUCCCUAUUUCAGCCUGGAUGUGGGGCUGGUGGAGAUGCCUC: 0.476

Sample 2
Target: CRIPT, C-terminal peptide
Technique: DHFR complementation, deep sequencing
Sample: yeast
Setting: single substitutions, model-inferred values
Reference: wild type
Reading: higher = weaker binding
Endpoint: binding free energy change
Parent: ERBIN, PDZ domain 1 (human); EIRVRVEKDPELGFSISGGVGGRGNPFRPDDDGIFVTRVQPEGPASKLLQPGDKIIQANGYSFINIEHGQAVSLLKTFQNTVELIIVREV; partner TKNYKQTSV
T37W: 0.936 kcal/mol
F63L: -0.207 kcal/mol
E7F: 0.088 kcal/mol
E42P: 0.61 kcal/mol
I56F: 0.136 kcal/mol
P51H: 0.383 kcal/mol
P10E: -0.519 kcal/mol
F27W: 0.629 kcal/mol

Sample 3
Target: Hepatocyte nuclear factor 3-beta, forkhead domain (FOXA2, Homo sapiens, UniProt Q9Y261, residues 142-269)
Technique: protein-binding microarray
Form: double-stranded DNA, one strand shown
Sample: in vitro
Concentration: not given
Setting: k-mer, scored over probes, only values ≥0.25
Reading: higher = stronger binding
Endpoint: E-score
Residues (chain): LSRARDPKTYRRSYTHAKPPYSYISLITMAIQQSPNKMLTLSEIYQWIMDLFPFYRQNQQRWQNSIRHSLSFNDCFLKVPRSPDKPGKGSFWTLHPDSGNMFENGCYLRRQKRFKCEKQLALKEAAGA
TAAGTAAA: 0.275
ATGTTATA: 0.365
ATGTAAAT: 0.319
ATCACAAG: 0.272
ATACTTTA: 0.369
AAGTATAT: 0.31
TACGTAAA: 0.315
CATTATTA: 0.27

Other studies, line by line
Parent: viral docking peptide; TSVRRALFTGGSD; partner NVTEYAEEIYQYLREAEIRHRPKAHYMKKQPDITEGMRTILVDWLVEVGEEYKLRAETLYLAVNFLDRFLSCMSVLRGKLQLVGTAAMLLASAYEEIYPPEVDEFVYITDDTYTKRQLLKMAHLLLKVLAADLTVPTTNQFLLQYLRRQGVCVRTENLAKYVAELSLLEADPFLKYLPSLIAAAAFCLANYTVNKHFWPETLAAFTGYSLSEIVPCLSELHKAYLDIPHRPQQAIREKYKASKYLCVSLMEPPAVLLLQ
TSVRRALFTGGND [S12N]  normalised enrichment score (CCNA1, cyclin fold, Cln2 fusion (human); yeast growth competition, sequencing; yeast; strong parent motif; reference: not given, higher = stronger binding): 0.93
